# Assay results pooled from the literature.
# Each numbered part is a random draw from the data of one study; scales do not carry over between parts.

# Sample 1
# Target: Histone acetyltransferase KAT6A, winged helix 2, GST fusion (KAT6A, Homo sapiens, UniProt Q92794, residues 85-181)
# Method: protein binding microarray
# Molecule type: double-stranded DNA, one strand shown
# Sample: in vitro
# Tested at: not given
# Notes: 8-mer, flanks averaged, mean of 2 arrays, mostly near background
# Reference: not given
# Direction: higher = stronger binding
# Construct (chain): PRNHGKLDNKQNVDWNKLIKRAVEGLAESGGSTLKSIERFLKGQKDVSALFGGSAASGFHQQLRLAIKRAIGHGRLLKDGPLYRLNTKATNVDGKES
Strand,E-score
ACAAACTC,0.0919
CCGCACGG,0.18
ACCTACGA,-0.0246
GCCCTCGC,-0.0365
CCAAGGGA,-0.0518
CACCAGAG,-0.0306
ACGATAAG,-0.126
CCACTTTA,-0.0331
GTGCCTTA,0.0565
ACTTTATA,-0.115
ACCATCCA,-0.047
GGAACTTA,-0.0576
CAGGGCGA,0.121
CACCAACC,0.0928
CTCATGTA,0.0358
ACGCTAAT,-0.16
CTAACAAA,0.073
CGCACAAA,0.215
GTAGTAAA,-0.00696
GTCTGGAA,-0.083

# Sample 2
# Target: Ras GTPase-activating protein-binding protein 1, RRM domain (G3BP1, Homo sapiens, UniProt Q13283)
# Chain of UniProt Q13283 (whole entry, looked up): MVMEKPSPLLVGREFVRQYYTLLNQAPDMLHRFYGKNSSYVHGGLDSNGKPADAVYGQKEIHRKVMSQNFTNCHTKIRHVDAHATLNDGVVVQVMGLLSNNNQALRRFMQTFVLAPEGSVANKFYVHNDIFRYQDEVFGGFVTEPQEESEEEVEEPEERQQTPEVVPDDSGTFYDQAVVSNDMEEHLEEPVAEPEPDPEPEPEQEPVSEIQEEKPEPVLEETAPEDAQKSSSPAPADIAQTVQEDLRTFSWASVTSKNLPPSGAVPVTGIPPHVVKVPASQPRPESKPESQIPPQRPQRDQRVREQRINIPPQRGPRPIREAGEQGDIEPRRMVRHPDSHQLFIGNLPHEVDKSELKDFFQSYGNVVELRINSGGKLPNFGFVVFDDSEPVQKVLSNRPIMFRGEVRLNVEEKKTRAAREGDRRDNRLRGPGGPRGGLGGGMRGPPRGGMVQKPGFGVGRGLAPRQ
# Method: RNA Bind-n-Seq
# Molecule type: RNA
# Sample: in vitro
# Tested at: 1 µM
# Notes: whole 134-nt RNA, ends assumed
# Added: 150 mM KCl
# Reference: input library
# Direction: higher = stronger binding
Strand,log2 enrichment
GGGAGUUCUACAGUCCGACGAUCACCAUGCAGGUGGGCAUCUUUGGGAAGUGGGGCAAGGGGGGGAUAGGGAGGGGGGUAACACUUUGGGAACAGGUGGUCCCAGGUCUUUUCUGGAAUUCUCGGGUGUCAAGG,0.875
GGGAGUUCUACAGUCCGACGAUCCCUGUGCUACACAUCGUAUGUACCGAAUCGGGGUUUUUUGGUUUUUUGGGGUUUUUUGGGAAAGUAUUAUGUUACGCCGUUCGGAUCUGCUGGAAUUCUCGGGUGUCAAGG,-0.289
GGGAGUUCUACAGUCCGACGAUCAAGUCCUGUGCUACACAUCGUAUGUACCGAAUCGGGGUUUGGGUUUGGGUUUGGGGAAAGUAUUAUGUUACGCCGUUCGGAUCUGCACUUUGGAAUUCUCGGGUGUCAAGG,0.593
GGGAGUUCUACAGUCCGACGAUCCCUCAAGUCCUGUGCUACACAUCGUAUGUACCGAAUCGGGGCGGGGCGGGCGGAAAGUAUUAUGUUACGCCGUUCGGAUCUGCACUUCCAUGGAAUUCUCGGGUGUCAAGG,-0.137
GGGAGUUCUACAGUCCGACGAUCCACAGACAACACGCACCCACACAGACACAGAGGGAAGGGGUUGGGAUGGGGACAGUGUGCACAGCAGGGCGGGGUAGGACCCCAGCCCCUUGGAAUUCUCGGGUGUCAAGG,-0.00267
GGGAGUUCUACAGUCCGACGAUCUAACUUUAGAGGAGGAUCUGAUGGAUAUGGCAGUGUACGUGGAUUUGGGGAUGGCUAUAAUGGGUAUGGAGGAGGACCUGGAGGUGGCAAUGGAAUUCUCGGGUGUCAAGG,-0.599
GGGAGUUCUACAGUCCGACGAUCCAAGUCCUGUGCUACACAUCGUAUGUACCGAAUCGGCCCGGGCCCGGGCCCGGGGAAAGUAUUAUGUUACGCCGUUCGGAUCUGCACUUCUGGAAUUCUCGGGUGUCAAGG,-0.926
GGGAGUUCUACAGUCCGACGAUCAAGUCCUGUGCUACACAUCGUAUGUACCGAAUCGGUUUGGUUUUUGGUUUUUUUGGAAAGUAUUAUGUUACGCCGUUCGGAUCUGCACUUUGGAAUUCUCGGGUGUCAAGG,-0.178
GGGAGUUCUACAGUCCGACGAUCUCCUGUGCUACACAUCGUAUGUACCGAAUCGGGUUUUUUGGGUUUUUUGGGGUUUUUUGGAAAGUAUUAUGUUACGCCGUUCGGAUCUGCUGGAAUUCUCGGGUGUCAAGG,-0.0521

# Sample 3
# Target: RNA binding protein fox-1 homolog 2, RRM domain, GST-SBP tag (RBFOX2, Homo sapiens, UniProt O43251-10, residues 100-194)
# Method: RNA Bind-n-Seq
# Molecule type: RNA
# Sample: in vitro
# Tested at: 365 nM
# Notes: natural RNA segment, single round, ends assumed
# Reference: no-protein control
# Direction: higher = stronger binding
# Construct (chain): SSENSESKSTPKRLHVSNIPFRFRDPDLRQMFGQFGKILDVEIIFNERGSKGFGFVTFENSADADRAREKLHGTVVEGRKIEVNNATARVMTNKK
Strand,RBNS enrichment (R)
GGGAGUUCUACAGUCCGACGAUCAUUUAUGCACAUACUUAAAGGACAGAAAUGUCUGGGAAAGUAAUUGUUAAAUAAUGAUAUGUAACUUUUUAACUUUUUAAAUAAAUAACAAGAUUUUUAAUGUGUGUCUCUGGAAUUCUCGGGUGCCAA,0.477
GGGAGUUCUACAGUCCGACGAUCCUGGGAGCUCUUGGUUACCCCCUUGUCUGACUGCUUGGUGGCAGGCACCCUGCCUGUGAGGGCCACUUUCCUCUUCUAGUAGCUGUUGUCUGGUGGGGACGCAGUGGCCCUGGAAUUCUCGGGUGCCAA,3.36
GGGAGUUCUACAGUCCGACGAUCUAGUAGUUUUUAUCACUAAAAAGUUGGACUUGGAGUCCUAUAGUAGUUUCAGCGUUAGAUAAAGUUUUUCCACCAUACAUCUUUAGGUGCAUUCAUCUUUAGGUGACUGAUGGAAUUCUCGGGUGCCAA,0.437
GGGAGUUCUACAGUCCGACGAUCUUCAGUUUCCUGUAUAUUUGCUUACUGUGCCGUUUUAGUGGUUUUAGGAUAAAAAUGCACUGGUGAAGCAAAUGUAGUGCCAACAGAAGGUGAUUUUCCAGUUGUAAAUGUGGAAUUCUCGGGUGCCAA,0.654
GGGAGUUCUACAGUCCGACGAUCCUUACCAUUUCCUUGUUUGAGUAAGAGAGUGAAUGGUUCUGAGUGUUUAGGAAGGAUUUGCUUGCUUGCAGCAGAAGUUCUAGGAAAAGCAGGCACCUCCCAAAUAUCUUUGGAAUUCUCGGGUGCCAA,0.318
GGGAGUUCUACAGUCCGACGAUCCAAGCCCAGCCCACCUUAGCAUGUAUCACUCUGUGGAGAAUAAAGCACCCUGUGUACACAGCCAGAAGCCACACCGCCUGUGCUCCUGAAUCCUGGUCCAGCCCUCCCCAUGGAAUUCUCGGGUGCCAA,1.56
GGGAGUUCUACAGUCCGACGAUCCUGCCAAAAUGCUCCGAAAUCUAAAACGUGUUGAGCACCAACAGGAUACCACAAGUAAAAACUUUAGUUAGUUCAUCUACAAAAGUAUUCAAAAGAAUACAUAGACUGGAUGGAAUUCUCGGGUGCCAA,0.289
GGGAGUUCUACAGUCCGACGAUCAUGUGUGGGGUUUCUAUUAGAAGAUAAUUUUGUUCUCAUUUUACCUUUUCUUUUAUGAUCCUUCUCUGCUAGAACAGGUUAAUUCUCCAAAUUUGUUUUGUUUUGUUUUGUGGAAUUCUCGGGUGCCAA,1.96

# Sample 4
# Target: Centromere-binding protein 1, full length, His-tagged (CBF1, Saccharomyces cerevisiae, UniProt P17106, residues 1-351)
# Chain of UniProt P17106 (whole entry, looked up): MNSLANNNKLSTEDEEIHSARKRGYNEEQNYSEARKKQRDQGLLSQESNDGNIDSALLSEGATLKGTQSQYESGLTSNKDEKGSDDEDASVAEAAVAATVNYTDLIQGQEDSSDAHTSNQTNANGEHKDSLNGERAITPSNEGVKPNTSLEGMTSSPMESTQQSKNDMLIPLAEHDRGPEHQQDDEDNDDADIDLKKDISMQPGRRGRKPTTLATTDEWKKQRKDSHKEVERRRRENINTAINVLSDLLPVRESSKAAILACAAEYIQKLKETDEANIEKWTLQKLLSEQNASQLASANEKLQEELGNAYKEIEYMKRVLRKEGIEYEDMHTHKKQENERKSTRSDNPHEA
# Method: competition protein-binding microarray
# Molecule type: double-stranded DNA, one strand shown
# Sample: in vitro
# Tested at: 2 µM
# Notes: whole 60-bp probe, lowest competitor level
# Added: Pho4 competitor, 0.05 µM
# Direction: higher = stronger binding
Strand,fluorescence intensity [a.u.]
GCGTCCTGTAAAGAGAGCGTGCGATAAGCCGCTATTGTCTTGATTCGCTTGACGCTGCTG,60.4
CTATTTCCGTTACCCGCCGTGCAATACAGCATCGCTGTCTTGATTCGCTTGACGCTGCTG,67.9
CTGTAGAAGCTAGTACTTGTGATGAACCATTGGCAGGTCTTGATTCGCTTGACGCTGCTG,84.6
ATTGTGGAATTGGCAGGCGTGACAAACAAATCCGATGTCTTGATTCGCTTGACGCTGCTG,285
AAAGCGGTAATTTGTACAGTGGGTGCAGATATCTATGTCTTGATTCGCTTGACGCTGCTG,86.1
CCAAAGCAGATTTGTCACCTGGAATAGAGTTTTTGTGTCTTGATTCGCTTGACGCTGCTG,79
CCCAAAGGGATGGGATACATGACAACAACAAGCAAGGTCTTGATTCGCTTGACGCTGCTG,70.2
CTTTCCCGATCTTGTAGGGTGGGTGTAGCACATTTGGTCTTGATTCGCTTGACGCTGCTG,78.6
CTTTCCCGATCTTGCTCTGTGGGTGTAGCACATTTGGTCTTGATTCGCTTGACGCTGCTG,74.9
AGGCAAGGAGAGCACCATGTGCTGAGTCACAAATACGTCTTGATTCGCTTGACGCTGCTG,124
CGTCCTAGTGATTGCACTGTGGGTGCCATGAGGAAGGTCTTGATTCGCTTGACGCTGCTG,78.8
ACTTTGGATTATCTGCTCGTGCAAATGAAATATACTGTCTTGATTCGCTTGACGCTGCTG,182
GAACCTGTGGAATTAAGCATGACAATTGGAAAGTCCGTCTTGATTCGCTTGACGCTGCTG,103
ATATTTTTCCCGTCCTGCGTGCTGTCCCAATACAATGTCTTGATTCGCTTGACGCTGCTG,139
GCAATTCCTTTCTGAAACGTGAAAAGATACCGTCAAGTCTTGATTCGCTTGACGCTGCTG,103
ATTGAGAAGTATAACGACACCCAGTGGACCTCGGGTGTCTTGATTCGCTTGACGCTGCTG,57
CGGGGTTAAGTTTGTAGTGTGGGTGGCTTGCAGCAGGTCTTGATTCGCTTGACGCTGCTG,73.5
TGAAAAAACCCTTTTCGCGTGCCAGTGATGCTTCCAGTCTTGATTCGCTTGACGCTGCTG,69.5
CTTCTGTAAATTTGTTTTGTGGGTGGACGCGCCCCGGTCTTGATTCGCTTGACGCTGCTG,78.9

# For quick reference, copied from above (sample 1):
Strand,E-score
CACCAACC,0.0928
CTCATGTA,0.0358
ACGCTAAT,-0.16
CTAACAAA,0.073
CGCACAAA,0.215
GTAGTAAA,-0.00696
GTCTGGAA,-0.083
